Measurements pooled from the literature.
Protocols differ between the studies behind these lines. “And” joins repeats or separate records; there may be more than shown.
CDK7: Cyclin-dependent kinase 7 (CDK7, Homo sapiens, UniProt P50613)
Chain of UniProt P50613 (whole entry, unmodified, looked up): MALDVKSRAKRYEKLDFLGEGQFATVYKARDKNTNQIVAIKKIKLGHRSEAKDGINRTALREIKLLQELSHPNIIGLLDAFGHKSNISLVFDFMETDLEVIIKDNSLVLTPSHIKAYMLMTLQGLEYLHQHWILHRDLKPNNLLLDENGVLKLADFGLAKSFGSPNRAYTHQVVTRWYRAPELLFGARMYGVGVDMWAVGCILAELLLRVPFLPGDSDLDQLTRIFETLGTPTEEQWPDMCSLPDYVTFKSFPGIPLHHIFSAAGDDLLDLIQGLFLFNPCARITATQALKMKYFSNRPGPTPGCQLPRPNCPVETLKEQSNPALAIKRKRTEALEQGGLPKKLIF
CDK7 with cyclin H: Cyclin-dependent kinase 7, with cyclin H (CDK7, Homo sapiens, UniProt P50613)
CDK7 with cyclin H, MAT1: Cyclin-dependent kinase 7, with cyclin H, MAT1 (CDK7, Homo sapiens, UniProt P50613)

With `CC(C)=CC1OC(C)(C)C2C=C3C(=O)C(Cl)=CC(O)C3C3C(O)C4OC4C(=O)C132` (centres unmarked) the remaining binding was 76% (CDK7; cell-free assay, competition with immobilised ligand; 10 µM).
The inhibition of `O=c1cc(-c2cccc(O)c2)oc2c1ccc1occc12` is reported as 63.8% (CDK7 with cyclin H; enzyme activity, inhibitor, ADP detection; 10 µM).
`N[C@H]1CC[C@H](Nc2nccc(-c3cccnc3Oc3ccc(NC(=O)NC4CC4)c4ccccc34)n2)CC1`: “log2 LFQ intensity” 18.6 and 21.6 and 19 and 22.2 (CDK7; kinobead competition pulldown; HEK293/HCT116 lysate mixture; 10 µM, 1 h, 4 °C; lower = stronger competition).
The normalized luminescence of `C#CCOC(=O)[C@]1(C)C=C(C(=O)OC(C)(C)C)C(=O)CC1` is reported as -0.077 and 0.0602 and 0.127 (CDK7 with cyclin H, MAT1; kinase activity, Kinase-Glo luminescence; concentration not given).
With `CCn1cc(C(=O)O)c(=O)c2c(N)c(F)c(NC3CCCCC3)cc21` the inhibition was 2.2% (CDK7 with cyclin H; kinase activity; 0.1 µM, added: ATP at Km).
For `COc1ccc(NC(=O)Nc2ccc3c(c2)C(=O)N(C(C)CO)CC(C)C(CN(C)Cc2ccc4c(c2)OCO4)O3)cc1` (centres unmarked), the remaining activity was 97% (CDK7; kinase activity, KinaseProfiler; 0.03 µM, species human; reference: control).
For `CN1CCN(Cc2ccc(-c3ccc(CO[C@H]4CCC[C@@H]4NC(=O)c4cc(-c5cnn(C)c5)cnc4N)cc3)cc2)CC1`, the inhibition was 11% (CDK7 with cyclin H, MAT1; SelectScreen kinase profiling; 0.1 µM).
The inhibition of `Cc1cccc(O[C@H]2CCC[C@@H](C(C)CNCc3ccncc3)C2)c1` (relative stereo) is reported as 2% (CDK7; enzyme activity, inhibitor; 10 µM).
For `COc1c(OCCCN2CCOCC2)ccc2c1N=C(NC(=O)c1cnc(N)nc1)N1CCN=C21`, the remaining activity was 99% (CDK7; kinase activity, inhibitor; 1 µM; reference: untreated control).
With `Cc1cnc2nc1Nc1cccc(c1)COC/C=C/COCc1cc(ccc1OCCN1CCOCC1)N2` the remaining binding was 100% (CDK7; binding; 0.1 µM).
The remaining binding of `CNC1C[S+]2CC[S+]3CC[S+](C1)[Ru-4]321([N]=C=S)[n]2c3ccc(OC)cc3c3c4c(c5cc(F)c[n+]1c5c32)C(=O)NC4=O` (centres unmarked) is reported as 96% (CDK7; KinomeScan; 0.1 µM; reference: untreated).
`CS(=O)(=O)Nc1cccc(-c2csc3cnc(Nc4ccc(N5CCN(CCCCCOc6cccc7c6C(=O)N(C6CCC(=O)NC6=O)C7=O)CC5)cc4)nc23)c1` (centres unmarked) gave an inhibition of 46.6% (CDK7; probe labelling, inhibitor, KiNativ chemoproteomics; MOLT-4; 1 µM).
With `Nc1ncc2c(n1)-c1c([nH]c3ccc(C4=CCOCC4)cc13)CCC2` the remaining binding was 47% (CDK7; binding, competition with immobilised ligand; 1 µM).
The remaining binding of `CNC(=O)C1CCN(c2cc(C)c(F)cc2NC(=O)c2ccc(-c3cc(O)ccc3C)c(C)c2)CC1` is reported as 100% (CDK7; binding, competition with immobilised ligand; 1 µM).
For `C=CC(=O)Nc1cc(-c2nn(C3CCN(CCNC(=O)[C@H](C)CCC45CC6CC(CC(C6)C4)C5)CC3)c3ncnc(N)c23)ccc1Oc1ccccc1`, the inhibition was 0% (CDK7; inhibitor, KiNativ profiling; biochemical; 2 µM).
`C[C@]1(O)CCCN(c2nc(Nc3ccc(S(=O)(=O)N[C@H]4CC[C@H](CN5CCN(c6ccc(C7CCC(=O)NC7=O)cc6F)CC5)CC4)cc3)ncc2C(F)(F)F)C1` (some centres unmarked) has a remaining binding of 38% (CDK7; binding, competition with immobilised ligand; 1 µM).
The inhibition of `C=CC(=O)Nc1cccc(-c2cnc3[nH]cc(C(=O)NC(C)(C)C)c3n2)c1` is reported as 3% and 5% (CDK7; kinase activity; 0.1 µM).
For `Cc1ccc(C(=O)NC(C)c2cccc(-c3ccncc3)c2)cn1` (centres unmarked), the remaining binding was 30% (CDK7; cell-free assay, competition with immobilised ligand; 10 µM).
`C=C1CCCCCCCCCC(CO)C1=O` (centres unmarked) gave a remaining binding of 99% (CDK7; cell-free assay, competition with immobilised ligand; 10 µM).
With `C=CC(=O)N1CCc2ccc(-n3c(=O)ccc4cnc5ccc(-c6cnn(C)c6)cc5c43)cc21` the remaining binding was 56% (CDK7; KINOMEscan; 1 µM; reference: DMSO control).
With `CN1CCN(Cc2ccc(NC(=O)c3cccc(C#Cc4cnc(N)c5ncccc45)c3)cc2C(F)(F)F)CC1` the remaining binding was 29% (CDK7; cell-free assay, competition with immobilised ligand; 0.5 µM).
The remaining binding of `CNS(=O)(=O)Nc1nccc(Cc2c(C)c3ccc(Oc4ncccc4F)cc3oc2=O)c1F` is reported as 100% (CDK7; binding, competition with immobilised ligand; 10 µM).
For `NC(=O)C[C@H]1CCc2sc3ncnc(O[C@H]4CC[C@H](N5CCOCC5)CC4)c3c21`, the inhibition was 16% (CDK7 with cyclin H; enzyme activity, inhibitor; 10 µM).
For `COC(=O)[C@@]1(C)C=C(C(=O)Nc2cccc(C(=O)Nc3ccc(Nc4nccc(-c5cccnc5)n4)c(C)c3)c2)C(=O)CC1`, the remaining activity was 95% (CDK7; enzyme activity, inhibitor, radiometric; 1 µM).
For `O=c1cc(-c2ccc(O)cc2)oc2c1ccc1occc12`, the inhibition was 71.3% (CDK7 with cyclin H; enzyme activity, inhibitor, ADP detection; 10 µM).
`COc1cc(Nc2nc(C)cc(-c3cnn4nc(OC)ccc34)n2)cc(C(F)(F)F)c1` has a remaining activity of 73% (CDK7; inhibitor; 1 µM; reference: control).
